{"data": "Assay results pooled from the literature", "note": "Every numbered part comes from another study and shows a few of its results, in no order."}
{"data": "Series 1", "Structure (SMILES)": "CC(C)n1cnc(-c2ccc(F)cc2)c1-c1ncc(C(=O)Nc2ccc(N3CCN(C)CC3)cc2)[nH]1", "technique": "phase 2a trial", "host": "idiopathic pulmonary fibrosis patients"}
{"dose": "dose not given", "notes": "adverse event grade 4, all dose arms pooled", "patients with coronary arteriosclerosis [%]": 0}
{"dose": "30 mg once daily", "notes": "adverse event grade 2", "patients with coronary arteriosclerosis [%]": 0}
{"dose": "60 mg once daily", "notes": "adverse event grade 1", "patients with coronary arteriosclerosis [%]": 0}
{"dose": "60 mg once daily", "notes": "adverse event grade 5", "patients with coronary arteriosclerosis [%]": 0}
{"dose": "60 mg once daily", "notes": "adverse event grade 2", "patients with coronary arteriosclerosis [%]": 0}
{"dose": "30 mg once daily", "notes": "adverse event grade 3", "patients with coronary arteriosclerosis [%]": 0}
{"dose": "30 mg once daily", "notes": "adverse event grade 4", "patients with coronary arteriosclerosis [%]": 0}
{"data": "Series 2", "target": "Tyrosine-protein kinase Srms (SRMS, Homo sapiens, UniProt Q9H3Y6)", "observed": "enzyme activity", "mode": "inhibitor", "tested at": "0.5 µM", "relative to": "control", "UniProt Q9H3Y6, sequence (whole entry, looked up)": "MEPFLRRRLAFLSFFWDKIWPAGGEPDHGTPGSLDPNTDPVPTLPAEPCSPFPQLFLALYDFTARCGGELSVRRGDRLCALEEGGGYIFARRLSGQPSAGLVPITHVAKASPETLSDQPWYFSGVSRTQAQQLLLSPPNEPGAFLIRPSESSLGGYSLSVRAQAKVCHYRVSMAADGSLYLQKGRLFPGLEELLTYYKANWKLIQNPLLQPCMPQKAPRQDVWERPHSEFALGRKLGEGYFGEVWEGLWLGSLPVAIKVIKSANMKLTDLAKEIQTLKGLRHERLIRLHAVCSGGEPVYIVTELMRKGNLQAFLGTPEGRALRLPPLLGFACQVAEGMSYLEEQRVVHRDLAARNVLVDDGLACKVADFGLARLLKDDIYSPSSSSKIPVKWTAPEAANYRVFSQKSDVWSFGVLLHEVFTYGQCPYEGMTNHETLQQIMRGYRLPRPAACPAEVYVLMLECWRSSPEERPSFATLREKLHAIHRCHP"}
{"SMILES": "O=C1NC(=O)C(c2cn(CCCO)c3ncccc23)=C1c1cnccn1", "remaining activity [%]": 95.9}
{"SMILES": "COc1ccc(CNC(=O)Nc2ncc([N+](=O)[O-])s2)cc1", "remaining activity [%]": 93.3}
{"SMILES": "O=S(=O)(c1cccc2cnccc12)N1CCCNCC1", "remaining activity [%]": 97.5}
{"SMILES": "CO[C@H]1C[C@@H]2CC[C@@H](C)[C@@](O)(O2)C(=O)C(=O)N2CCCC[C@H]2C(=O)O[C@H]([C@H](C)C[C@@H]2CC[C@@H](O)[C@H](OC)C2)CC(=O)[C@H](C)/C=C(\\C)[C@@H](O)[C@@H](OC)C(=O)[C@H](C)C[C@H](C)/C=C/C=C/C=C/1C", "remaining activity [%]": 108}
{"SMILES": "Cc1ccc(NC(=O)c2ccc(CN3CCN(C)CC3)cc2)cc1Nc1nc(-c2cccnc2)cs1", "remaining activity [%]": 92.9}
{"SMILES": "Nc1[nH]nc2nc3ccccc3nc12", "remaining activity [%]": 88.5}
{"SMILES": "OCC(O)CCON=C1C(c2c(O)[nH]c3ccccc23)=Nc2ccccc21 (centres unmarked)", "remaining activity [%]": 102}
{"SMILES": "CC(C)[C@H](CO)Nc1nc(Nc2cc(N)cc(Cl)c2)c2ncn(C(C)C)c2n1", "remaining activity [%]": 96.8}
{"SMILES": "O=C1NC(=O)C(c2cn(CCCn3ccnc3)c3ccccc23)=C1Nc1ccccc1", "remaining activity [%]": 103}
{"SMILES": "O=C(Nc1cccc(Nc2cc(Nc3cccc(C(F)(F)F)c3)ncn2)c1)C1CC1", "remaining activity [%]": 95.2}
{"SMILES": "O=c1c2ccccc2[nH]c(=S)n1CCN1CCC(=C(c2ccc(F)cc2)c2ccc(F)cc2)CC1", "remaining activity [%]": 96.7}
{"SMILES": "CCOC(=O)c1c(C)[nH]c(/C=C2\\C(=O)Nc3ccccc32)c1C", "remaining activity [%]": 104}
{"SMILES": "COc1ccc(OC)c2c(=S)c3ccccc3[nH]c12", "remaining activity [%]": 83.5}
{"SMILES": "C#Cc1cccc(Nc2ncnc3cc(OCCOC)c(OCCOC)cc23)c1", "remaining activity [%]": 93.2}
{"data": "Series 3", "target": "5-hydroxytryptamine receptor 5A (HTR5A, Homo sapiens, UniProt P47898)", "observed": "cell-free assay", "tested at": "10 µM", "UniProt P47898, sequence (whole entry, looked up)": "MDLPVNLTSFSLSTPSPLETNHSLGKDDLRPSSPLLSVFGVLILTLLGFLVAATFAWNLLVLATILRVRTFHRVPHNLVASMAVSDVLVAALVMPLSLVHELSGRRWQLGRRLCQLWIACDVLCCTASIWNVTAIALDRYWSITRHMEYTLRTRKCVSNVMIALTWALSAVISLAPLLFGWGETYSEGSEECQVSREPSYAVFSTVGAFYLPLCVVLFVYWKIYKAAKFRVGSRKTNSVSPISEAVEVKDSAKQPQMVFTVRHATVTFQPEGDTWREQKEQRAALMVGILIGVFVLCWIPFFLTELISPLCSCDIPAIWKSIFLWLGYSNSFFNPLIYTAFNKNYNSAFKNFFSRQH"}
{"SMILES": "O=C(Nc1ccc(Oc2ccc(F)cc2)cc1)N1CCc2ncccc2[C@H]1c1ccc(F)cc1", "inhibition [%]": 7.18}
{"SMILES": "CC1=C(C#N)C(c2ccc3[nH]nc(C)c3c2)C(C#N)=C(C)N1", "inhibition [%]": -11.2}
{"SMILES": "Cc1ncc(-c2cc(Cl)ccc2F)cc1-n1c(=O)n(CC(N)=O)c2ccccc21", "inhibition [%]": -0.66}
{"SMILES": "FC(F)(F)c1ccc2c(c1)nc(-c1cccnc1)n2C1CC1", "inhibition [%]": -2.64}
{"SMILES": "CCS(=O)(=O)c1cc2cc(C[C@](O)(CC(C)(C)c3ccc(F)cc3C(N)=O)C(F)(F)F)[nH]c2cn1", "inhibition [%]": 12.2}
{"SMILES": "CCCCN(CCCC)C(=O)CN1C[C@@H](c2cc(OC)c3c(c2)OCO3)[C@H](C(=O)O)[C@H]1CC(C)(C)CCC", "inhibition [%]": 43.5}
{"SMILES": "O=C(NC[C@@H]1[C@H]2CN(C(=O)OCc3cc(C(F)(F)F)cc(C(F)(F)F)c3)C[C@@H]12)c1ccc2[nH]nnc2c1", "inhibition [%]": 33.2}
{"SMILES": "O=C(Nc1ccc(-n2nc(-c3cccnc3)cc2C(F)(F)F)cn1)c1ccc(-c2ccccc2)c(F)c1", "inhibition [%]": -2.92}
{"data": "Series 4", "host": "mouse", "sample": "microsomes or S9", "tested at": "2 µM", "time": "0.5 h"}
{"SMILES": "CCOC(C)c1nc(Cn2nc3ccccn3c2=O)cs1 (centres unmarked)", "remaining compound [%]": 58.5}
{"SMILES": "c1ccc(/N=c2/nc(N3CCN(C(c4ccccc4)c4ccccc4)CC3)nc(Nc3ccccc3)[nH]2)cc1", "remaining compound [%]": "> 99"}
{"SMILES": "CCCN1C(=O)C2(C(C(=O)c3ccc4c(c3)CC(C)O4)=C(O)C(=O)N2CC2CCCO2)c2ccccc21 (centres unmarked)", "remaining compound [%]": 47.8}
{"SMILES": "CN(C)S(=O)(=O)CCNCc1ccc(-c2ccccc2)cc1", "remaining compound [%]": 1.75}
{"SMILES": "COc1ccccc1NC(=O)NC1Cc2ccccc2C1", "remaining compound [%]": 4.6}
{"SMILES": "CCc1cc2c3c([nH]c2cc1S(=O)(=O)N(Cc1ccccc1)C(C)C)CCCC3=O", "remaining compound [%]": "> 99"}
{"note": "Excerpt of the above (series 4):"}
{"SMILES": "c1ccc(/N=c2/nc(N3CCN(C(c4ccccc4)c4ccccc4)CC3)nc(Nc3ccccc3)[nH]2)cc1", "remaining compound [%]": "> 99"}
{"SMILES": "CCCN1C(=O)C2(C(C(=O)c3ccc4c(c3)CC(C)O4)=C(O)C(=O)N2CC2CCCO2)c2ccccc21 (centres unmarked)", "remaining compound [%]": 47.8}
{"SMILES": "CN(C)S(=O)(=O)CCNCc1ccc(-c2ccccc2)cc1", "remaining compound [%]": 1.75}
{"SMILES": "COc1ccccc1NC(=O)NC1Cc2ccccc2C1", "remaining compound [%]": 4.6}
